Experimental data of several laboratories.
A part holds a random share of what one study measured. Positions count from the first letter of the parent shown.

Block 1
Target: CCNE2, cyclin fold, Cln2 fusion (human)
Method: yeast growth competition, sequencing
Sample: yeast
Notes: strong parent motif
Relative to: not given
Direction: higher = stronger binding
Starting sequence: DOT1L docking peptide (human); SEAKRRIVFTITT; partner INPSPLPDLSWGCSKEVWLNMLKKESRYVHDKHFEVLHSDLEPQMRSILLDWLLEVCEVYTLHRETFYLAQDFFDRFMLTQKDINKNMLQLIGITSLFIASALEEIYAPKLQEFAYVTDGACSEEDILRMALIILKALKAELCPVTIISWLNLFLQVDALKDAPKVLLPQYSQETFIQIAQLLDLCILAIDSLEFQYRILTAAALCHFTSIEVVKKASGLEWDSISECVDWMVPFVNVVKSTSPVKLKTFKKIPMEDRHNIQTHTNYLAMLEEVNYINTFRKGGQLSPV
Variant | normalised enrichment score
SEAKRRIAFTITT [V8A] | 0.552
SEAKARIVFTITT [R5A] | -0.0265
SEAKRRIVFTITA [T13A] | 1.18
SEAKRRIVFTIAT [T12A] | 1.04
SEAKRRIVFAITT [T10A] | 0.887
SEAKRRAVFTITT [I7A] | 0.26

Block 2
Target: RNA binding protein fox-1 homolog 2, RRM domain, GST-SBP tag (RBFOX2, Homo sapiens, UniProt O43251-10, residues 100-194)
Method: RNA Bind-n-Seq
Molecule type: RNA
Sample: in vitro
Tested at: 365 nM
Notes: natural RNA segment, single round, ends assumed
Relative to: no-protein control
Direction: higher = stronger binding
Target sequence (chain): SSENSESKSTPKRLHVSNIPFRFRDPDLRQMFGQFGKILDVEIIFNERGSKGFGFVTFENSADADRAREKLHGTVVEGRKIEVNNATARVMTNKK
Sequence | RBNS enrichment (R)
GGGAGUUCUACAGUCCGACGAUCCCAGGGUAGAGCAAAGGAGACAAAGCAGGAGUGGAAGGUGAGGCGUUCUCCUGCUUGUACUAAGCCAGGAGGCUUUAAGCUCCAGCUUUAAGGGUUGUGAGCCCCUUGGGUGGAAUUCUCGGGUGCCAA | 0.97
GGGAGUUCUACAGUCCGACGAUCUACAUCUCCAUUACAAGUUGGAACUCAGUAGAAUCAAACCUUGUUACUUUAAGAUCUGUAGAAAUAAACCUAAGUUAAUUUUCCCCCAAAUCACGAGCAUCCGUGAUGGGUGGAAUUCUCGGGUGCCAA | 0.568
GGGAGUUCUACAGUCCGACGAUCUUGUCAGCACCUGGAAACAUCUGCCUUCUUAAAUGCAGUACAUUCUAAAGAGAGUGAGCAUGAGCUCACUCCAUCACUCGAUGAGAUAAUAUGAGAUUUCUACUUCGGAGUGGAAUUCUCGGGUGCCAA | 0.274
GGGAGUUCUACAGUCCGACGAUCAAGGACCUCCAUUUGGAGAAUUGCAAGGAUUUUAUCCUGAAUUAUAGUGUUGGUGAGUUCAAGUCAUCACGCCAAGUGCUUGCCAUCCUGGUUGCUAUUCUAAGAAUAAUUGGAAUUCUCGGGUGCCAA | 0.294
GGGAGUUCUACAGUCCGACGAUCUUUUAAUAUGUGGACGCUGCAAAAAAUGUGUUUAAAUUAUCUUUUUUAAGAUGAAUUAAGGACUAUUAGCUCGAACUUCGAUGCAGAGUUUGUAAAUAAGGGUGUCUGUGUGGAAUUCUCGGGUGCCAA | 0.335
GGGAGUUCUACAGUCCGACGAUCGAAACUGCCGUAUAGUCACUGUUUUAAAAACCCCGGAGGGGCUGUAUUAAUUUGUAUUGCCCCAUGGCUGACAAAAGCCUUUUUUUUUGGUUUUGAUUUUUUUUUUUUUGUGGAAUUCUCGGGUGCCAA | 1.39
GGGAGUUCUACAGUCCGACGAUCUCCCAUAUUAAAGGAUCAUCAUCAUGGUUCUGCAGACACUCCGUGGCUCUGGGCGGUUCGUGCCCUUGCUAGCCACUACCCUUCAAUUCACCUGUGAUGCUAGCAUUAAUUGGAAUUCUCGGGUGCCAA | 0.507
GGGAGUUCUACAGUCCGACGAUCAGCUCAUGCAUUUCUGAUUAUACAAAACAGUUUGCAGUAGGUUAUUUGUCAUUUCAGUUUUUUACUGAAAUUUGAGCUAAACAUUUUUACAUGUAAAUACUUGUAUUUACUGGAAUUCUCGGGUGCCAA | 0.45
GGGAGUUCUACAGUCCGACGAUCGUUCGCAGCUGAGUUGUGAUACUGACCUGGUAAUCAGACCAAAGUACUGUCCCGGCUGGUUUUAUCUCAGCUCCUCUCAGCCGUGUCUCUGGCACGCUUGAGAGGAGUCAUGGAAUUCUCGGGUGCCAA | 0.226
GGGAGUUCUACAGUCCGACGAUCGGGCUUGGGGAAAGAAGGCUGCAGGCAGCCUGCCGUCUAGGCAUCACUUUAUUUUUUAUCCUCCAGACUUCUGCUCCUCCCACAGCUGAUGACUUGCACUUUUAAAGUGGUGGAAUUCUCGGGUGCCAA | 0.419
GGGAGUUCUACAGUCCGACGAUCAUUGUUUUCCUGACAGCAAAAGACUAAUGUGACAAAAUGAAGUCAUUGUAAAGAAGCGAUGCAACUUGUCAAAUAUUUAAUAAAGAAUUAUGGAAGCUGGAACAUUUUCUUGGAAUUCUCGGGUGCCAA | 0.565
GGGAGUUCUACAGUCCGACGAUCUGUCCUGUCUGUAUGAUCUAAAAACCAGCCUUUUCCCCAGAAGGCUCUGAGCACAUCCAGAAGUGAUAACCUGACCCUCCACACCAAAGACACCCUGGUGCUGCUGCUGGUGGAAUUCUCGGGUGCCAA | 0.442

Block 3
Target: ABI1, truncated, D143A, DHFR fusion (Arabidopsis thaliana)
Method: DHFR PCA, deep sequencing
Sample: yeast
Notes: methotrexate growth selection, single substitutions
With: (+)-ABA 1.4 µM
Relative to: wild-type fitted maximum
Direction: higher = stronger binding
Starting sequence: PYL1, truncated, DHFR fusion (Arabidopsis thaliana); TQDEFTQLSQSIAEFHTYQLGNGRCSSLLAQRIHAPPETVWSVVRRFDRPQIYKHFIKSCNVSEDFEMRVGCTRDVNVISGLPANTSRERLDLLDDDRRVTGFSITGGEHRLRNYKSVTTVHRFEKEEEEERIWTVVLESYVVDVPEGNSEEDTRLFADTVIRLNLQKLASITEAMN
Variant | relative binding score [%]
E14A | 15.7
T120Q | -0.214
Q31I | -13.8
C72S | 51.9
A35Y | -23.5
S11H | 52.9
W134G | 55.4
A30C | 52.8
E38D | 56.3
F66T | 26
Y53P | -4.4
S117C | 0.915
H55M | 77.5
L156N | 4.92
T135L | -1.38
H122Q | -5.2

Block 4
Target: CREBZF, bZIP domain (human)
Method: DHFR protein complementation
Sample: yeast
Notes: single substitutions, most at no-binding floor
Relative to: wild-type JUN-FOS pair
Direction: higher = stronger binding
Starting sequence: JUN, bZIP domain (human); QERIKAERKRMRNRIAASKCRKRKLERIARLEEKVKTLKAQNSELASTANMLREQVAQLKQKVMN; partner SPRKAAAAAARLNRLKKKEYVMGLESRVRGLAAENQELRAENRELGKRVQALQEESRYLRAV
Variant | binding fitness [natural log]
N42H | -1.47
L38T | -1.45
M51Q | -1.47
L52H | -1.51
Q58P | -1.52
A46D | -1.4
E32T | -1.5
A57V | -1.51
E32V | -1.48
E54K | -1.52
A49R | -1.36
A40C | -1.46
E54I | -1.43
A49H | -1.54
V56S | -1.52
T48G | -1.51
A49E | -1.59
R30M | -1.43
E32K | -1.53
T48V | -1.31
Q41A | -1.49
N42S | -1.44
A49T | -1.41
I28C | -1.49

Block 5
Target: Interferon regulatory factor 5, full length, phosphomimetic (IRF5, Homo sapiens, UniProt Q13568-2, residues 1-514, K96S/S451D/S453D/S456D/S462D)
Method: protein-binding microarray
Molecule type: double-stranded DNA, one strand shown
Sample: in vitro
Tested at: 250 nM
Notes: 60-bp whole probe
With: salmon DNA 0.4 mg/ml
Relative to: random background probes
Direction: higher = stronger binding
All sequences stand within: GCCTAGCAC … GTCTTGATTCGCTTGACGCTGCTG
Sequence | log fluorescence [z-score]
TATTTTTTTTATTTATAAATGTGCTAG | 1.42
AACCATTTTGGTTTTCTCTAGTGCTAG | 0.871
TTTGGACACAGACACAGGCCGTGCTAG | -0.108
GACGGACTTGGGACTGGGGACGTGCTA | -0.319
TTGTCTTTTCATTTTCTTTAGTGCTAG | 2.3
TCAACTTTGGCATGTCTTACTGTGCTA | -0.0628
TTAGGTGTCGGTTCCGGTTAGTGCTAG | 0.977
TTAGGTTTCGGATCCGGTTAGTGCTAG | 6.72
GACGGACTGGGGACTGGGGGCGTGCTA | 0.368
GACGGTTTCCATATCCTGACGTGCTAG | 0.829
GACGGTGTCGGTCTCGGGACGTGCTAG | -0.161
TGCTGTGTACATCTCTCTTAGTGCTAG | 0.0567
AAACCTCACAGTTTGTAAATGTGCTAG | 0.0532
TTAGGTATCCGTCTCCTTTAGTGCTAG | 0.0594
GACGATTTCCTACTGCTGACGTGCTAG | 0.28
TTAGACTTCAGTCTCGATTAGTGCTAG | 0.572
TTAGGTCTCCTTATCCTTTAGTGCTAG | -0.0646

Block 6
Target: Sal-like protein 4, full length isoform B (SALL4, Homo sapiens, UniProt Q9UJQ4-2, residues 1-616)
Method: universal PBM
Molecule type: double-stranded DNA, one strand shown
Sample: in vitro
Tested at: not given
Notes: 8-mer, flanks averaged, mean of replicates
Direction: higher = stronger binding
Sequence | E-score
ACCCCGTA | 0.0101
ACGGTCAG | -0.0925
CTGTGTAC | 0.0494
GGCTACCC | -0.332
GCGTATCA | 0.099
ATAGGTGG | 0.135
ACGGTAAT | 0.199
GGCTTACA | -0.0123
AGCCATAT | 0.251
CTCGTATA | 0.123
AGACACTG | -0.103
ATTTAAGG | 0.0462
CTATTAAA | 0.227
TCTCGAGA | -0.0573
ACTGGTGC | -0.207
CCAAATGG | -0.0418
GCCAGACC | -0.373
AAAGTCCT | -0.15
ACTTCCGG | -0.124
CATAACTA | 0.358

For quick reference, copied from above (block 4):
Variant | binding fitness [natural log]
L38T | -1.45
Q41A | -1.49
N42H | -1.47
A57V | -1.51
E54I | -1.43
A46D | -1.4
Q58P | -1.52
A49R | -1.36
A49E | -1.59
A40C | -1.46
T48G | -1.51
N42S | -1.44
